Assay results from different studies.
Each line is one published result; not all experiments were run side by side. Numbers after ± are the reported error.
PTH1R: Parathyroid hormone/parathyroid hormone-related peptide receptor (PTH1R, Homo sapiens, UniProt Q03431)
Sequence of UniProt Q03431 (whole entry, looked up): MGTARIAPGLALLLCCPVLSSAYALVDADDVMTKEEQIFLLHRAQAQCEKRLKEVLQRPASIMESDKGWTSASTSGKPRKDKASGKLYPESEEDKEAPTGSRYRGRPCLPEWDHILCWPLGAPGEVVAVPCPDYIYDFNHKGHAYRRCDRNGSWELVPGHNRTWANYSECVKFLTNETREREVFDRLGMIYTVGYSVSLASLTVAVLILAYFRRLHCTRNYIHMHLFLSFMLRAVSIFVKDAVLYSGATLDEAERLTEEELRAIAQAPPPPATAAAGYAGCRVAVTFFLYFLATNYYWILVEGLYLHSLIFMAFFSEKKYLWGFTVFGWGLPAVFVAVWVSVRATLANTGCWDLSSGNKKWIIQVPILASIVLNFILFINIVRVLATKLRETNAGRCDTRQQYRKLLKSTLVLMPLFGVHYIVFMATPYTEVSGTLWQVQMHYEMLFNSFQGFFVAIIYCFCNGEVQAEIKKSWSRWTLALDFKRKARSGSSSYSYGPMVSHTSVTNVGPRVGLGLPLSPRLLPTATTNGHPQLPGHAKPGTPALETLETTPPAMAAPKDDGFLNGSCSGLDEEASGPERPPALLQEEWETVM
Melanocortin receptor 5: Melanocortin receptor 5 (Mus musculus, UniProt P41149)
Sequence of UniProt P41149 (whole entry, looked up): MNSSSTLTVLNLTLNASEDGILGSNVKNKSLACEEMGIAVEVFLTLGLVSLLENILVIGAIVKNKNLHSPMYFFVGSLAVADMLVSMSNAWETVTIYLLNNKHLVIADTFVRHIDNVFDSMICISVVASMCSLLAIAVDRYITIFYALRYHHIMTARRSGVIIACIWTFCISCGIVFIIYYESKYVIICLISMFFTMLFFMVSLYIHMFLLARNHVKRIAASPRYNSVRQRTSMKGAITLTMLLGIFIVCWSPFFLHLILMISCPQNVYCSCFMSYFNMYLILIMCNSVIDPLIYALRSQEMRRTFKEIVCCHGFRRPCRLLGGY
Thyrotropin-releasing hormone receptor: Thyrotropin-releasing hormone receptor (Mus musculus, UniProt P21761)
Sequence of UniProt P21761 (whole entry, looked up): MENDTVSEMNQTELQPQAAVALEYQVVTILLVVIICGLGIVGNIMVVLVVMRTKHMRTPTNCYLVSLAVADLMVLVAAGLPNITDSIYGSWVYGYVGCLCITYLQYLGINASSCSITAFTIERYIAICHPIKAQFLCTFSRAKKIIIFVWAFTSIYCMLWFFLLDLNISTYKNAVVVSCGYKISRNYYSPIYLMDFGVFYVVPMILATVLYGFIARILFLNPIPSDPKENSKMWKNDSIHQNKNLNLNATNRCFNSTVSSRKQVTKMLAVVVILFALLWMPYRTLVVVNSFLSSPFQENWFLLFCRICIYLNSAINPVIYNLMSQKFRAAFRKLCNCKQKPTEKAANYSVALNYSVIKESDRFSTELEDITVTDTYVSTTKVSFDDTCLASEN
NR1H2 ligand-binding domain: Oxysterols receptor LXR-beta, ligand-binding domain (NR1H2, Homo sapiens, UniProt P55055)
Sequence of UniProt P55055 (whole entry, looked up): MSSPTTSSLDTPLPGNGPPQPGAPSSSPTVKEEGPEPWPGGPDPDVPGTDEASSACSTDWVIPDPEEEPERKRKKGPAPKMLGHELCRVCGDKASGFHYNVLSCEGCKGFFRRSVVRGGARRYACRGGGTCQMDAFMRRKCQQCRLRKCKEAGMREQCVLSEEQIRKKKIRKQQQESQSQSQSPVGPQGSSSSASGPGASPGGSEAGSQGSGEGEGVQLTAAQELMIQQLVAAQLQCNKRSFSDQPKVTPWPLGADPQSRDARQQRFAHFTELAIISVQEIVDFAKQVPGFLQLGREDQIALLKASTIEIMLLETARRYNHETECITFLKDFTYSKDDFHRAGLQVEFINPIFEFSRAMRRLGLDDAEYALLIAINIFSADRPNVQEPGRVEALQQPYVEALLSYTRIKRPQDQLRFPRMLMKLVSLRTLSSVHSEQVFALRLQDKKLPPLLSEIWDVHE
FFAR3: Free fatty acid receptor 3 (FFAR3, Homo sapiens, UniProt O14843)
Sequence of UniProt O14843 (whole entry, looked up): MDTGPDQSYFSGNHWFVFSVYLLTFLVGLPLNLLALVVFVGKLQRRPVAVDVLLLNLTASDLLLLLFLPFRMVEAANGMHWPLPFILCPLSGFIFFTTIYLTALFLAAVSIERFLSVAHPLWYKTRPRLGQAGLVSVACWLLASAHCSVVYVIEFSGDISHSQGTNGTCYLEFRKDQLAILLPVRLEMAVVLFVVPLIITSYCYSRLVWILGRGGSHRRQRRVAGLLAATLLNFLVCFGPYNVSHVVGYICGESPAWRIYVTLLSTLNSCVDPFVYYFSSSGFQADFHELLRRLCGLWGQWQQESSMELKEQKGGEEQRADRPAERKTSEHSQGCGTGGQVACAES
Sequence of UniProt Q9WTJ5 (whole entry, looked up): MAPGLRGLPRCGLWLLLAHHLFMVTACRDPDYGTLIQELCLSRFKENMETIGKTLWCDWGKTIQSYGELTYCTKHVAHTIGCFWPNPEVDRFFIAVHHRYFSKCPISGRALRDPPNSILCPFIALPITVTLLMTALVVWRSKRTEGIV
Sequence of UniProt A7T1N0 (whole entry, looked up): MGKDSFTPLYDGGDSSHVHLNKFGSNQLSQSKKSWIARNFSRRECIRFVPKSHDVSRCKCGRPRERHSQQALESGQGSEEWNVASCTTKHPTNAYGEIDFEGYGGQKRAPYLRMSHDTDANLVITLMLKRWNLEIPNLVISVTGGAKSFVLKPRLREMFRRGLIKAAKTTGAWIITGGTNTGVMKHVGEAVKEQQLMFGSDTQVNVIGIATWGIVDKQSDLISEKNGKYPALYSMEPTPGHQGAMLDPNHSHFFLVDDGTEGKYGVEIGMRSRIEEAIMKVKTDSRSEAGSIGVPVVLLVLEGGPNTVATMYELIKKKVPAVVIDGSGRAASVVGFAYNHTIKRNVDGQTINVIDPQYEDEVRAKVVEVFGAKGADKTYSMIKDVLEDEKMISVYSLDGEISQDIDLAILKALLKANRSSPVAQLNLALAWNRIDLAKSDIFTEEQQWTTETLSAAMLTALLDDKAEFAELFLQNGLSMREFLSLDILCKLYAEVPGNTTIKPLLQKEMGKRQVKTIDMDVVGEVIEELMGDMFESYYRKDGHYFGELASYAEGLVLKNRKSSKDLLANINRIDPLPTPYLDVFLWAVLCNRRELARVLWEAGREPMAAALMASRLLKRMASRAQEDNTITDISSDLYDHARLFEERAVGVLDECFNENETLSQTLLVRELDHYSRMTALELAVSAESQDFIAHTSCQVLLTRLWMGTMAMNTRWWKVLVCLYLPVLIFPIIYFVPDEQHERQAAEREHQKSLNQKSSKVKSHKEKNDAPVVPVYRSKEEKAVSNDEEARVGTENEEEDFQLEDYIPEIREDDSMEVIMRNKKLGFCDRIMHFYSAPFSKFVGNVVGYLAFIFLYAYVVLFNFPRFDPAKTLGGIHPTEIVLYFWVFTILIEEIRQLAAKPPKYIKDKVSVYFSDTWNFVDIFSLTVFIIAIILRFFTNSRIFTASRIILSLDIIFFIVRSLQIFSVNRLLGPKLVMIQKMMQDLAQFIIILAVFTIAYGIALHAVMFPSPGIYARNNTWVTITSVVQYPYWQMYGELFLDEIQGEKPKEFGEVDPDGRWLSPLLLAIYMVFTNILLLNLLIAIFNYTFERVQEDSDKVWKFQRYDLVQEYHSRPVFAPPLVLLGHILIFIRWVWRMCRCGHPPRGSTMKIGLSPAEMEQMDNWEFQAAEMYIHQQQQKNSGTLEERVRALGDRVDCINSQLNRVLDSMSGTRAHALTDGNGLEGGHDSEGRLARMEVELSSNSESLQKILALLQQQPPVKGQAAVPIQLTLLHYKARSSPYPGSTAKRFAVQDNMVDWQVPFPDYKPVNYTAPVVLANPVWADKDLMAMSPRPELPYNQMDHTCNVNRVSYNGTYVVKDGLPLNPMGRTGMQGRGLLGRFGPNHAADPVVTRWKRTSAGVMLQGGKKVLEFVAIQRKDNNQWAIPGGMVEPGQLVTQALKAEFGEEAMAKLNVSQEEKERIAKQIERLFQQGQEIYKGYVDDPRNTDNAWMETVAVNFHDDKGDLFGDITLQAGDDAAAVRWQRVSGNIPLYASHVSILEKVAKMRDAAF
Sequence of UniProt P30969 (whole entry, looked up): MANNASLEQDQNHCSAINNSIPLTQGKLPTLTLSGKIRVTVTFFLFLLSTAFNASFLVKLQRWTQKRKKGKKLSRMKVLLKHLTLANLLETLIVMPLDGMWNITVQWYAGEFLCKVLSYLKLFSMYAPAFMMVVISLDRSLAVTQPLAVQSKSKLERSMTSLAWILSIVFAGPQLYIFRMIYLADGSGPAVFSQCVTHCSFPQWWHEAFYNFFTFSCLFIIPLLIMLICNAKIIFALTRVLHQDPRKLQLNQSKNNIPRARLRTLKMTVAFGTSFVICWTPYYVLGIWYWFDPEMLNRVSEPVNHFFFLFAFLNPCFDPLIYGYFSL
Sequence of UniProt Q60755 (whole entry, looked up): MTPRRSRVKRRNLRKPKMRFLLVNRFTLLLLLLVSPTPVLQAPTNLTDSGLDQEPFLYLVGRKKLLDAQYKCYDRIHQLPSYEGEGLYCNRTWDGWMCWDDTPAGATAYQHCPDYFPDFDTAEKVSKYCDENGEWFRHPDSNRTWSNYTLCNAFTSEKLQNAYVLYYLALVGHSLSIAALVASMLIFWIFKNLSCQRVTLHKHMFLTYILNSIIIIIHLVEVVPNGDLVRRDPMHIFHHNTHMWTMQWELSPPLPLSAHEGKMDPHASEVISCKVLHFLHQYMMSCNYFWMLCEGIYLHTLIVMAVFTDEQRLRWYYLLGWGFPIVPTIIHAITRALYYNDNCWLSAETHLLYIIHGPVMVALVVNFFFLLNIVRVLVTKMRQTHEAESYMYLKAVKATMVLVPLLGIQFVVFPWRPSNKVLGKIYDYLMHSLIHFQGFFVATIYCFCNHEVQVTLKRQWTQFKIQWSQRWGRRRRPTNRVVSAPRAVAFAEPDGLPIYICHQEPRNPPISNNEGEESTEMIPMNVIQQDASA

| Structure (SMILES) | target | assay | system | conditions | EC50 |
| --- | --- | --- | --- | --- | --- |
| CCCC[C@H](NC(=O)[C@H](CO)NC(=O)[C@H](CC(N)=O)NC(=O)[C@H](CC(C)C)NC(=O)[C@H](Cc1c[nH]cn1)NC(=O)[C@H](CCCCN)NC(=O)CNC(=O)[C@H](CC(C)C)NC(=O)[C@H](CC(N)=O)NC(=O)[C@H](Cc1c[nH]cn1)NC(=O)[C@H](CCCC)NC(=O)[C@H](CC(C)C)NC(=O)[C@H](CCC(N)=O)NC(=O)[C@@H](NC(=O)[C@H](CCC(=O)O)NC(=O)[C@H](CO)NC(=O)[C@@H](NC(=O)[C@@H](N)CO)C(C)C)[C@@H](C)CC)C(=O)N[C@@H](CCC(=O)O)C(=O)N[C@@H](CCCNC(=N)N)C(=O)N[C@H](C(=O)N[C@@H](CCC(=O)O)C(=O)N[C@@H](Cc1c[nH]c2ccccc12)C(=O)N[C@@H](CC(C)C)C(=O)N[C@@H](CCCNC(=N)N)C(=O)N[C@@H](CCCCN)C(=O)N[C@@H](CCCCN)C(=O)N[C@@H](CC(C)C)C(=O)N[C@@H](CCC(N)=O)C(=O)N[C@@H](CC(=O)O)C(=O)N[C@H](C(=O)N[C@@H](Cc1c[nH]cn1)C(=O)N[C@@H](CC(N)=O)C(=O)N[C@@H](Cc1ccccc1)C(=O)N[C@H](C(=O)N[C@@H](C)C(=O)N[C@@H](CC(C)C)C(=O)O)C(C)C)C(C)C)C(C)C | PTH1R | reporter gene, agonist, luciferase |  |  | 0.676 nM |
| C[C@@H]1NC(=O)[C@H](CC(N)=O)NC(=O)[C@H](Cc2c[nH]c3ccccc23)NC(=O)[C@H](CCCNC(=N)N)NC(=O)[C@@H](Cc2ccccc2)NC(=O)[C@H](Cc2c[nH]cn2)NC(=O)[C@@H](NC(=O)[C@@H](N)Cc2ccc(O)cc2)Cn2cc(nn2)C[C@@H](C(=O)N[C@@H](Cc2ccc(O)cc2)C(N)=O)NC(=O)[C@H](Cc2ccccc2)NC1=O | Melanocortin receptor 5 | agonist |  |  | 16 ± 0.66 nM |
| CCOc1ccccc1-c1nnc2n1N=C(c1ccc(N3CCCCC3)cc1)CS2 | C-X-C chemokine receptor type 4 (CXCR4, Homo sapiens, UniProt P61073) | β-arrestin recruitment, agonist |  |  | > 10000 nM |
| CC[C@H](C)[C@H](NC(=O)CNC(=O)[C@H](CC(=O)O)NC(=O)[C@H](CO)NC(=O)Cc1cccnc1)C(=O)N[C@@H](Cc1ccccc1)C(=O)N[C@H](C(=O)N[C@@H](CC(=O)O)C(=O)N[C@@H](CO)C(=O)N[C@@H](Cc1ccc(O)cc1)C(=O)N[C@@H](CO)C(=O)N[C@@H](CCCNC(=N)N)C(=O)N[C@@H](Cc1ccc(O)cc1)C(=O)N[C@@H](CCCNC(=N)N)C(=O)N[C@@H](CCCCN)C(=O)N[C@@H](CCC(N)=O)C(=O)N[C@@H](CCSC)C(=O)N[C@@H](C)C(=O)N[C@H](C(=O)N[C@@H](CCCCN)C(=O)N[C@@H](CCCCN)C(=O)N[C@@H](C)C(=O)N[C@@H](CC(C)C)C(=O)N[C@@H](C)C(=O)N[C@@H](C)C(=O)N[C@H](C(=O)N[C@@H](CC(C)C)C(=O)NCC(=O)N[C@@H](CCCCN)C(=O)N[C@@H](CCCNC(=N)N)C(=O)N[C@@H](Cc1ccc(O)cc1)C(=O)N[C@@H](CCCCN)C(=O)N[C@@H](CCC(N)=O)C(=O)N[C@@H](CCCNC(=N)N)C(=O)N[C@H](C(=O)N[C@@H](CCCCN)C(=O)N[C@@H](CC(N)=O)C(=O)N[C@@H](CCCCN)C(N)=O)C(C)C)C(C)C)C(C)C)[C@@H](C)O | Pituitary adenylate cyclase-activating polypeptide type I receptor (ADCYAP1R1, Homo sapiens, UniProt P41586) | cAMP, agonist, radiometric |  |  | 10 nM |
| NCCOB(c1ccccc1)c1ccccc1 | Transient receptor potential cation channel subfamily V member 3 (Trpv3, Mus musculus, UniProt Q8K424) | ion current, agonist, inside-out patch clamp |  | with EGTA | 51000 ± 11000 nM |
| Cn1cnc(C[C@H](NC(=O)C2CCCCN2)C(=O)N2CCC[C@H]2C(N)=O)c1 (stereo partly drawn) | Thyrotropin-releasing hormone receptor | calcium signal, agonist, fluorescence |  |  | 3550 nM |
| N=C(N)NCCC[C@H](NC(=O)[C@H](Cc1ccccc1)NC(=O)[C@@H](N)CO)C(=O)N[C@@H](CC(N)=O)C(=O)NCC(N)=O | Neuropeptide S receptor (NPSR1, Homo sapiens, UniProt Q6W5P4, N107I) | cAMP, agonist, TR-FRET |  |  | 3060 nM |
| CC[C@H](C)[C@H](NC(=O)[C@H](CCC(N)=O)NC(=O)[C@H](Cc1c[nH]cn1)NC(=O)[C@H](C)NC(=O)[C@H](CC(C)C)NC(=O)[C@H](CCCCN)NC(=O)[C@H](CCC(N)=O)NC(=O)[C@@H](NC(=O)[C@@H](NC(=O)[C@@H]1CSSC[C@H](NC(=O)CNC(=O)[C@H](Cc2ccccc2)NC(=O)[C@H](CO)NC(=O)[C@H](CCCNC(=N)N)NC(=O)[C@H](CC(C)C)NC(=O)CNC(=O)[C@H](CCC(N)=O)NC(=O)[C@H](Cc2ccccc2)NC(=O)[C@H](CC(N)=O)NC(=O)[C@H](CC(N)=O)NC(=O)[C@H](CCSC)NC(=O)[C@H](CO)NC(=O)[C@H](CCC(N)=O)NC(=O)[C@H](CCCNC(=N)N)NC(=O)[C@@H](N)Cc2ccc(O)cc2)C(=O)N[C@@H](CCCNC(=N)N)C(=O)N[C@@H](Cc2ccccc2)C(=O)NCC(=O)N[C@@H]([C@@H](C)O)C(=O)N1)[C@@H](C)O)C(C)C)C(=O)N[C@@H](Cc1ccc(O)cc1)C(=O)N[C@@H](CCC(N)=O)C(=O)N[C@@H](Cc1ccccc1)C(=O)N[C@H](C(=O)N[C@@H](CC(=O)O)C(=O)N[C@@H](CCCCN)C(=O)N[C@@H](CC(=O)O)C(=O)N[C@@H](CCCCN)C(=O)N[C@@H](CC(=O)O)C(=O)N[C@@H](CC(N)=O)C(=O)N[C@H](C(=O)N[C@@H](C)C(=O)N1CCC[C@H]1C(=O)N[C@@H](CCCNC(=N)N)C(=O)N[C@@H](CO)C(=O)N[C@@H](CCCCN)C(=O)N[C@H](C(=O)N[C@@H](CO)C(=O)N1CCC[C@H]1C(=O)N[C@@H](CCC(N)=O)C(=O)NCC(=O)N[C@@H](Cc1ccc(O)cc1)C(N)=O)[C@@H](C)CC)C(C)C)[C@@H](C)O | Calcr/Ramp1 (Mus musculus, UniProt Q60755+Q9WTJ5) | cAMP production, agonist | COS-7, transfected | 15 min, 37 °C, together with: IBMX 1 mM | 97.7 nM |
| CC(=O)N[C@H](C(=O)N[C@@H](C)C(=O)N[C@@H](Cc1ccc(O)cc1)C(=O)N[C@H]1CSSC[C@@H](C(=O)N[C@@H](Cc2ccc(O)cc2)C(=O)N[C@@H](C)C(=O)N[C@@H](CCCNC(=N)N)C(N)=O)NC(=O)[C@H](Cc2ccccc2)NC(=O)[C@H](C)NC(=O)[C@H](CC(N)=O)NC(=O)[C@H](Cc2ccccc2)NC(=O)[C@H](Cc2ccccc2)NC(=O)[C@H](CCCNC(=N)N)NC1=O)[C@@H](C)O | Melanocortin receptor 5 | cAMP reporter gene, agonist | HEK293 |  | > 100000 nM |
| N=C(N)NCCC[C@@H](NC(=O)[C@H](Cc1c[nH]cn1)NC(=O)[C@H](CO)NC(=O)[C@H](Cc1c[nH]c2ccccc12)NC(=O)[C@H](Cc1c[nH]cn1)NC(=O)[C@@H]1CCC(=O)N1)C(=O)N[C@@H](Cc1c[nH]c2ccccc12)C(=O)N[C@@H](Cc1ccc(O)cc1)C(=O)N1CCC[C@H]1C(=O)NCC(N)=O | Gonadotropin-releasing hormone receptor (Rattus norvegicus, UniProt P30969) | inositol phosphate accumulation, agonist | WPE-1-NB26-3 expressing Gonadotropin-releasing hormone receptor | 60 min, 37 °C, together with: 10 mM LiCl | 0.9 ± 0.2 nM |
| CSCC[C@H](NC(=O)[C@H](CO)NC(=O)[C@H](CC(N)=O)NC(=O)[C@H](CC(C)C)NC(=O)[C@H](Cc1c[nH]cn1)NC(=O)[C@H](CCCCN)NC(=O)CNC(=O)[C@H](CCCCN)NC(=O)[C@H](CC(=O)O)NC(=O)[C@H](Cc1c[nH]cn1)NC(=O)[C@H](CC(C)C)NC(=O)[C@H](CC(C)C)NC(=O)[C@H](CCC(N)=O)NC(=O)[C@H](Cc1c[nH]cn1)NC(=O)[C@H](CCC(=O)O)NC(=O)[C@H](CO)NC(=O)[C@@H](NC(=O)[C@H](C)N)C(C)C)C(=O)N[C@@H](CCC(=O)O)C(=O)N[C@@H](CCCNC(=N)N)C(=O)N[C@H](C(=O)N[C@@H](CCC(=O)O)C(=O)N[C@@H](Cc1c[nH]c2ccccc12)C(=O)N[C@@H](CC(C)C)C(=O)N[C@@H](CCCNC(=N)N)C(=O)N[C@@H](CCCCN)C(=O)N[C@@H](CCCCN)C(=O)N[C@@H](CC(C)C)C(=O)N[C@@H](CCC(N)=O)C(=O)N[C@@H](CC(=O)O)C(=O)N[C@H](C(=O)N[C@@H](Cc1c[nH]cn1)C(=O)N[C@@H](CC(N)=O)C(=O)N[C@@H](Cc1ccccc1)C(=O)N[C@@H](CCCCNC(=O)c1ccc2c(c1)C1(OC2=O)c2ccc(N(C)C)cc2Oc2cc(N(C)C)ccc21)C(N)=O)C(C)C)C(C)C | PTH1R | cAMP formation, agonist, GloSensor | HEK293 GP2.3 | 15 min | 0.15 ± 0.02 nM |
| CN(C(=O)c1c(F)cc(F)cc1F)c1ccc(C(O)(C(F)(F)F)C(F)(F)F)cc1 | NR1H2 ligand-binding domain | agonist |  | concentration not given | 1300 ± 30 nM |
| O=C(O)C1CCC1 | FFAR3 | agonist |  |  | 126000 nM |
| CN(C(=O)C1CC1)c1ccc(C(O)(C(F)(F)F)C(F)(F)F)cc1 | NR1H2 ligand-binding domain | agonist |  | concentration not given | > 10000 nM |
| Nc1ncnc2c1ncn2C1OC(COP(=O)(O)OP(=O)(O)OCC2OC(O)C(O)C2O)C(O)C1O (stereo not drawn) | TRPM2 (Nematostella vectensis, UniProt A7T1N0) | channel activation, activator, inside-out patch clamp |  | global fit with ε-analogue, together with: 125 µM Ca2+ | 1600 ± 200 nM |
| O=C(O)C1CC1 | FFAR3 | agonist |  |  | 107000 nM |
| CCn1cnc(C[C@H](NC(=O)c2cnc(C)cn2)C(=O)N2CCC[C@H]2C(N)=O)c1 | Thyrotropin-releasing hormone receptor | calcium signal, agonist, fluorescence |  |  | 2810 nM |
| O=C(NC[C@@H](Cc1ccc(F)cc1)N1CCC(O)(C(F)(F)F)CC1)C1(c2ccc(Cl)cc2)CCCC1 | Transient receptor potential cation channel subfamily A member 1 (TRPA1, Homo sapiens, UniProt O75762) | calcium signal, agonist |  |  | 6.5 nM |

Some of these lines once more:
| Structure (SMILES) | target | assay | system | conditions | EC50 |
| --- | --- | --- | --- | --- | --- |
| O=C(O)C1CCC1 | FFAR3 | agonist |  |  | 126000 nM |
| CN(C(=O)C1CC1)c1ccc(C(O)(C(F)(F)F)C(F)(F)F)cc1 | NR1H2 ligand-binding domain | agonist |  | concentration not given | > 10000 nM |
| NCCOB(c1ccccc1)c1ccccc1 | Transient receptor potential cation channel subfamily V member 3 (Trpv3, Mus musculus, UniProt Q8K424) | ion current, agonist, inside-out patch clamp |  | with EGTA | 51000 ± 11000 nM |
